Results gathered from unrelated publications.
± marks the error that the study gave.

| Structure (SMILES) | target or system | test | system | setting | how to read | measurement | result |
| --- | --- | --- | --- | --- | --- | --- | --- |
| COc1ccc(NC(=O)c2ccc3[nH]c(-c4ccc(N(C)C)cc4)nc3c2)cn1 | ZR-75-1 | cell growth, CellTiter-Glo | – | – | – | EC50 | 9.51 µM |
| Cc1cccc(-c2cccc(C)n2)n1.Cc1cccc(-c2cccc(C)n2)n1.F[P-](F)(F)(F)(F)F.F[P-](F)(F)(F)(F)F.[Ru+2].c1cc2ccc3ccc(-c4nc5c6cccnc6c6ncccc6c5[nH]4)c4ccc(c1)c2c34 | SK-MEL-28 | cell viability | – | 1% O2, with: blue light 453 nm, 100 J/cm2 | – | EC50 | 38.4 ± 1.1 µM |
| CC(=S)NCCCC[C@H](NC(=O)OCc1ccccc1)C(=O)N[C@@H](Cc1c[nH]c2ccccc12)C(=O)NC(C)C | Jurkat | cell growth or viability, MTT | – | 72 h | – | EC50 | 65 to 76 µM |
| CN1CCCNC(=O)c2cccc(c2)C(=O)NCCCN(C)CCCNc2cccc3c2C(=O)c2cccc(c2C3=O)NCCC1 | SAS | RNA-Seq, refers to: ARGLU1 mRNA | – | 1 µM, 6 h | relative to: untreated cells | log2 fold change | -0.823 |
| Cc1cccc(-c2cccc(C)n2)n1.Cc1cccc(-c2cccc(C)n2)n1.F[P-](F)(F)(F)(F)F.F[P-](F)(F)(F)(F)F.[Ru+2].c1ccc2c(-c3nc4c5cccnc5c5ncccc5c4[nH]3)c3ccccc3cc2c1 | SK-MEL-28 | cell viability | – | normoxia, with: green light 523 nm, 100 J/cm2 | – | EC50 | 2.31 ± 0.07 µM |
| Nc1ncc(-c2cc(-c3cnn(CC(F)(F)F)c3)ncc2F)nc1C(=O)NC1CNCC(F)C1 (stereo not drawn) | STK36 | KINOMEscan | – | 1 µM | relative to: DMSO control | remaining binding | 97% |
| COC(=O)[C@H](C)NC(=O)[C@H](C)NC(=O)c1csc(-c2cccnc2)n1 | C4-2 | cell growth or viability | – | – | – | EC50 | > 30 µM |
| Cc1ncsc1-c1ccc(C(C)NC(=O)C2CC(O)CN2C(=O)C(NC(=O)CCCCCCCCCCN2CCCC(Nc3ncc(Cl)c(Nc4ccccc4S(=O)(=O)C(C)C)n3)C2)C(C)(C)C)cc1 (stereo not drawn) | 22Rv1 | RNA-seq, refers to: ZNF555 mRNA | – | concentration not given | relative to: DMSO | log2 fold change | -1.8 |
| [Cl-].[Cl-].[Ru+2].c1ccc(-c2ccccn2)nc1.c1ccc(-c2ccccn2)nc1.c1ccc2cc3nc4c5cccnc5c5ncccc5c4nc3cc2c1 | SK-MEL-28 | photocytotoxicity | – | visible light 400-700 nm, 100 J/cm2, oxygen 18.5% | – | EC50 | 0.083 ± 0.001 µM |
| C=CC(=O)Nc1cccc(Cn2ncc3cnc(Nc4cnn(CCOC)c4)nc32)c1 | SLK human | binding, KINOMEscan | – | 100 nM | lower = stronger binding | percent of control | 84% |
| COC1CN([C@H]2CC[C@H]([C@@]3(C)Oc4c(Cl)cc(C(=O)NCc5c(SC)cc(C)[nH]c5=O)c(C)c4O3)CC2)C1 | – | RNA-seq, refers to: BAIAP2 mouse homolog | mouse, HT-1376 xenograft, whole blood | dose not given | relative to: vehicle | log2 fold change | 0.399 |
| C=C(NC(=O)c1csc(-c2cccnc2)n1)C(=O)NC(=C)C(=O)OC | C4-2 | cell growth or viability | – | – | – | EC50 | 27.8 µM |
| Cc1cccc(-c2cccc(C)n2)n1.Cc1cccc(-c2cccc(C)n2)n1.F[P-](F)(F)(F)(F)F.F[P-](F)(F)(F)(F)F.[Ru+2].c1ccc(-c2nc3c4cccnc4c4ncccc4c3[nH]2)cc1 | SK-MEL-28 | cell viability | – | 1% O2, with: blue light 453 nm, 100 J/cm2 | – | EC50 | 100 ± 14 µM |
| C=C(NC(=O)c1csc(-c2ccc(NC(=O)CCCCCBr)cc2)n1)C(=O)NC(=C)C(=O)OC | SCC-90 | cell viability | – | – | – | EC50 | 2.9 µM |
| O=c1c(-c2cnn(-c3ccccc3)c2)c(C(F)(F)F)oc2c(O)c(O)ccc12 | ML-2 | apoptosis, annexin V flow cytometry | – | – | – | EC50 | ~14 µM |
